{"data": "Published values from different studies", "note": "Each line is one published result; not all experiments were run side by side."}
{"SMILES": "CC[C@H](C)[C@H](NC(=O)[C@H](CCN)NC(=O)[C@H](Cc1ccccc1)NC(=O)[C@H](Cc1ccccc1)NC(=O)CCCCCO)C(=O)N[C@@H](CCN)C(=O)N[C@H](Cc1ccccc1)C(=O)N[C@@H](CC(C)C)C(=O)N[C@@H](CCN)C(=O)N[C@@H](C(=O)N[C@@H](CC(C)C)C(=O)N[C@@H](CO)C(N)=O)C(C)C", "test": "light transmittance", "system": "PBS", "setting": "pH 7.4", "endpoint": "critical micelle concentration", "value": "959 µM"}
{"SMILES": "CCCCCCCCCCCC(=O)NCCCC[C@H](NC(=O)[C@H](C)NC(=O)[C@H](C)NC(=O)[C@H](C)NC(=O)[C@H](C)NC(=O)[C@H](C)NC(=O)[C@H](C)NC(=O)[C@H](CCCCN)NC(=O)[C@H](CCCCN)NC(=O)[C@H](CCCCNC(=O)CC[C@H](NC(=O)[C@@H](NC(=O)[C@@H]1CSSC[C@H](NC(=O)[C@H](CC(=O)O)NC(=O)[C@@H](N)Cc2c[nH]c3ccccc23)C(=O)N[C@@H](CC(C)C)C(=O)N[C@@H](CC(=O)O)C(=O)N[C@@H](CC(N)=O)C(=O)N[C@@H](CCCNC(=N)N)C(=O)N[C@@H]([C@@H](C)CC)C(=O)NCC(=O)N[C@@H](CCCNC(=N)N)C(=O)N[C@@H](CCCNC(=N)N)C(=O)N[C@@H](CCC(N)=O)C(=O)N1)C(C)C)C(=O)N[C@@H](CC(C)C)C(N)=O)NC(=O)CC[C@H](NC(=O)[C@@H](NC(=O)[C@@H]1CSSC[C@H](NC(=O)[C@H](CC(=O)O)NC(=O)[C@@H](N)Cc2c[nH]c3ccccc23)C(=O)N[C@@H](CC(C)C)C(=O)N[C@@H](CC(=O)O)C(=O)N[C@@H](CC(N)=O)C(=O)N[C@@H](CCCNC(=N)N)C(=O)N[C@@H]([C@@H](C)CC)C(=O)NCC(=O)N[C@@H](CCCNC(=N)N)C(=O)N[C@@H](CCCNC(=N)N)C(=O)N[C@@H](CCC(N)=O)C(=O)N1)C(C)C)C(=O)N[C@@H](CC(C)C)C(N)=O)C(N)=O", "test": "Nile red fluorescence blue shift", "system": "PBS", "setting": "total PA concentration, together with: Nile red 100 nM", "endpoint": "critical aggregation concentration", "value": "~10 µM"}
{"SMILES": "Nc1nc2c(ncn2CC(=O)N[C@@H](Cc2ccccc2)C(=O)N[C@@H](Cc2ccccc2)C(=O)N[C@@H](Cc2ccc(O)cc2)C(=O)O)c(=O)[nH]1", "test": "oscillatory rheology", "system": "hydrogel in water", "setting": "2.0 wt%, pH 5.0 or 7.4, together with: alkaline phosphatase at pH 7.4", "endpoint": "critical strain", "value": "2%"}
{"SMILES": "CCC(c1nnnn1Cc1cccs1)N1CCN(c2nc3cc(N)cc(F)c3s2)CC1 (stereo not shown)", "test": "light scattering", "system": "DNase II reaction buffer", "endpoint": "critical aggregation concentration", "value": "45 µM"}
{"SMILES": "Nc1nc2c(ncn2CC(=O)N[C@@H](Cc2ccccc2)C(=O)N[C@@H](Cc2ccccc2)C(=O)O)c(=O)[nH]1", "test": "oscillatory rheology", "system": "hydrogel in water", "setting": "2.0 wt%, pH 5.0 or 7.4, together with: alkaline phosphatase at pH 7.4", "endpoint": "critical strain", "value": "0.8%"}
{"SMILES": "O=C(Cc1ccc2ccccc2c1)N[C@H](Cc1ccc(OP(=O)(O)O)cc1)C(=O)N[C@H](Cc1ccccc1)C(=O)N[C@H](Cc1ccccc1)C(=O)N[C@H](Cc1ccc(OP(=O)(O)O)cc1)C(=O)O", "test": "substrate, rheology", "system": "hydrogel", "setting": "0.5 wt%, together with: alkaline phosphatase 1 U/mL", "endpoint": "critical strain", "value": "1%"}
{"SMILES": "CCCCCCCCCCCC(=O)N[C@@H](CC(C)C)C(=O)N[C@@H](CCCNC(=N)N)C(=O)N[C@@H](CCC(=O)O)C(=O)N[C@@H](CC(C)C)C(=O)N[C@@H](Cc1c[nH]cn1)C(=O)N[C@@H](CC(C)C)C(=O)N[C@@H](CC(N)=O)C(=O)N[C@@H](CC(N)=O)C(=O)N[C@@H](CC(N)=O)C(N)=O", "system": "PBS", "setting": "after atomizer spraying", "endpoint": "critical gelation concentration", "value": "1 mM"}
{"SMILES": "CCC(c1nnnn1Cc1cccs1)N1CCC(c2nc3cc(N)cc(F)c3s2)CC1 (stereo not shown)", "test": "light scattering", "system": "DNase I buffer", "setting": "5% DMSO", "endpoint": "critical aggregation concentration", "value": "46.6 µM"}
{"SMILES": "Cc1cn(CC(=O)N[C@@H](Cc2ccccc2)C(=O)N[C@@H](Cc2ccccc2)C(=O)N[C@@H](Cc2ccc(O)cc2)C(=O)O)c(=O)[nH]c1=O", "test": "oscillatory rheology", "system": "hydrogel in water", "setting": "2.0 wt%, pH 5.0 or 7.4, together with: alkaline phosphatase at pH 7.4", "endpoint": "critical strain", "value": "8%"}
{"SMILES": "CCC(c1nnnn1Cc1cccs1)N1CCN(c2nc3cc(OC)cc(F)c3s2)CC1 (stereo not shown)", "test": "light scattering", "system": "DNase I buffer", "setting": "5% DMSO", "endpoint": "critical aggregation concentration", "value": "90.7 µM"}
{"SMILES": "O=C(Cc1ccc2ccccc2c1)N[C@H](Cc1ccccc1)C(=O)N[C@H](Cc1ccc(OP(=O)(O)O)cc1)C(=O)N[C@H](Cc1ccccc1)C(=O)N[C@H](Cc1ccc(OP(=O)(O)O)cc1)C(=O)O", "test": "substrate, rheology", "system": "hydrogel", "setting": "0.5 wt%, together with: alkaline phosphatase 1 U/mL", "endpoint": "critical strain", "value": "1.8%"}
{"SMILES": "NCCNC(=O)[C@H](Cc1ccccc1)NC(=O)[C@H](Cc1ccccc1)NC(=O)CNC(=O)c1cc(C(=O)NCC(=O)N[C@@H](Cc2ccccc2)C(=O)N[C@@H](Cc2ccccc2)C(=O)NCCN)cc(C(=O)NCC(=O)N[C@@H](Cc2ccccc2)C(=O)N[C@@H](Cc2ccccc2)C(=O)NCCN)c1", "test": "Nile Red fluorescence", "system": "water", "setting": "pH 4.0, room temperature", "endpoint": "critical aggregation concentration", "value": "835 µM"}
{"SMILES": "O=C(/C=C/c1ccc(O)c2oc(-c3ccc(O)c(O)c3)cc12)O[C@H](Cc1ccc(O)c(O)c1)C(=O)O", "test": "RWG biosensor", "system": "HBSS HEPES buffer", "setting": "pH 7.2", "endpoint": "critical aggregation concentration", "value": "1 µM"}
{"SMILES": "CCC(c1nnnn1Cc1cccs1)N1CCN(c2nc3cc(N(C)C)cc(F)c3s2)CC1 (stereo not shown)", "test": "light scattering", "system": "DNase I buffer", "setting": "5% DMSO", "endpoint": "critical aggregation concentration", "value": "16.8 µM"}
{"SMILES": "COC(=O)[C@H](Cc1ccccc1)NC(=O)[C@H](Cc1ccccc1)NC(=O)CCC(=O)N[C@@H](Cc1ccccc1)C(=O)N[C@@H](Cc1ccccc1)C(=O)OC", "test": "surface tension tensiometry", "endpoint": "critical aggregation concentration", "value": "1.2 mg/mL"}
{"SMILES": "COCCOCCOCCOCCOCCOCCOCCOCCOCCOCCOCCOCCOCCOCCOCCOCCOCCOCCOCCOCCOCCOCCNC(=O)CCC1(Cc2ccccc2)c2ccccc2-c2ccc(-c3sc(-c4c5c(c(-c6sc(-c7ccc8c(c7)C(CCC(=O)NCCOCCOCCOCCOCCOCCOCCOCCOCCOCCOCCOCCOCCOCCOCCOCCOCCOCCOCCOCCOCCOCCOC)(Cc7ccccc7)c7ccccc7-8)c7c6OCCO7)c6nsnc46)N=S=N5)c4c3OCCO4)cc21 (stereo not shown)", "system": "deionized water", "endpoint": "critical aggregation concentration", "value": "0.14 mg/mL"}
{"note": "Some of these lines once more:"}
{"SMILES": "NCCNC(=O)[C@H](Cc1ccccc1)NC(=O)[C@H](Cc1ccccc1)NC(=O)CNC(=O)c1cc(C(=O)NCC(=O)N[C@@H](Cc2ccccc2)C(=O)N[C@@H](Cc2ccccc2)C(=O)NCCN)cc(C(=O)NCC(=O)N[C@@H](Cc2ccccc2)C(=O)N[C@@H](Cc2ccccc2)C(=O)NCCN)c1", "test": "Nile Red fluorescence", "system": "water", "setting": "pH 4.0, room temperature", "endpoint": "critical aggregation concentration", "value": "835 µM"}
{"SMILES": "O=C(/C=C/c1ccc(O)c2oc(-c3ccc(O)c(O)c3)cc12)O[C@H](Cc1ccc(O)c(O)c1)C(=O)O", "test": "RWG biosensor", "system": "HBSS HEPES buffer", "setting": "pH 7.2", "endpoint": "critical aggregation concentration", "value": "1 µM"}
